Measured values of several laboratories.
Parts stem from different laboratories: compare values within a part only. Substitutions count along the parent as printed.

Series 1 — target: CCNB2, cyclin fold, Cln2 fusion (human); method: yeast growth competition, sequencing; sample: yeast; setting: weak parent motif; reference: not given; reading: higher = stronger binding
Parent: CDKN1B docking peptide (human); PSACRNLFGPVDH
Under “normalised enrichment score”, `P1Q` is recorded as 0.233.
`V11S`: “normalised enrichment score” -0.181.
`C4Q`: “normalised enrichment score” -0.18.
For `F8P`, “normalised enrichment score” read 0.0774.
For `C4K`, “normalised enrichment score” read 0.217.
For `P1V`, “normalised enrichment score” read -0.301.
For `P10I`, “normalised enrichment score” read 0.319.
Under “normalised enrichment score”, `C4I` is recorded as 0.451.
For `D12P`, “normalised enrichment score” read -0.113.
For `S2C`, “normalised enrichment score” read 0.0416.
For `N6C`, “normalised enrichment score” read -0.131.
`C4F`: “normalised enrichment score” -0.049.
Under “normalised enrichment score”, `H13D` is recorded as -0.423.
`F8D` — result for “normalised enrichment score”: -0.0894.
`D12V` — result for “normalised enrichment score”: -0.0024.
Under “normalised enrichment score”, `A3I` is recorded as 0.332.

Series 2 — method: RNA Bind-n-Seq; molecule type: RNA; sample: in vitro; tested at: 200 nM; setting: whole 134-nt RNA, ends assumed; together with: 150 mM LiCl; reference: input library; reading: higher = stronger binding; all molecules: 7-deaza-guanosine replaces G
Target: Fragile X messenger ribonucleoprotein 1, C-terminal low-complexity region (Fmr1, Mus musculus, UniProt P35922)
`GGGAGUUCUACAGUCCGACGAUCUAACCUUAGAGGAGGAUCUGAUGGAUAUGGCAGUGGACGUGGAUUUGGGGAUGGCUAUAAUGGGUAUGGAGGAGGACCUGGAGGUGGCAAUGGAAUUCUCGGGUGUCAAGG` has a log2 enrichment of 0.184.
`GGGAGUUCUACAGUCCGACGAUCUGAAGACACAGCAUCCACCCGAUCUUCAUUCACUGUCCAAGACCUUAAACCUUUUACAGAAUAUGUGUUUAGGAUUCGCUGUAUGAAGGAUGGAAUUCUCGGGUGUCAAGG` has a log2 enrichment of -1.65.
`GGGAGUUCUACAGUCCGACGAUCUGCCUGUAUGGAGUGGAAUGAAUGUUGCUGGUGUCUCUCUGAAGACUCUGCACCCAGAUUUAGGGACUGAUAAAGAUAAGGAACAGUGGAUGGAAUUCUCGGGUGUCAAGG` has a log2 enrichment of 0.113.
For `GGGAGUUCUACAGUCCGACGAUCUGGCCCUGGUGGCAUGCGGGGAGGAAGAGGUGGCCUCAAGGAUCGUGGUGGUCCCGGUGGAAUGUUCAGAGGUGGCCGUGGUGGAGACAGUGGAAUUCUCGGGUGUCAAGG`, the log2 enrichment was -0.247.
The log2 enrichment of `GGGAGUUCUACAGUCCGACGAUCUCCUCAAGUCCUGUGCUACACAUCGUAUGUACCGAAUCGGCGGGCGGGCGGGAAAGUAUUAUGUUACGCCGUUCGGAUCUGCACUUCCAGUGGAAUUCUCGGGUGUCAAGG` is reported as 1.32.
For `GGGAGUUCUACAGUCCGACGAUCUAACUUUAGAGGAGGAUCUGAUGGAUAUGGCAGUGGACGUGGAUUUGGGGAUGGCUAUAAUGGGUCUGGAGGAGGACCUGGAGGUGGCAAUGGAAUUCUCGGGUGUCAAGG`, the log2 enrichment was -0.483.
`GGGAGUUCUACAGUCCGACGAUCAUUCUAUAAAUGGCAAGUAAGCCUGAAGUGAGGAUACUGCAAUUUUCGGAGAAAAGAACAGCAGCUCUUUAAGUGUUUGCAUUUUCUAUUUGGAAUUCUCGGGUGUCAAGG` gave a log2 enrichment of -2.58.
`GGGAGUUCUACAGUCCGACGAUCCUCAAGUCCUGUGCUACACAUCGUAUGUACCGAAUCGGGGUGGGUGGGGUGGGGAAAGUAUUAUGUUACGCCGUUCGGAUCUGCACUUCCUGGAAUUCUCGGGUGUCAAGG` gave a log2 enrichment of -0.325.

Series 3 — method: universal PBM; molecule type: double-stranded DNA, one strand shown; sample: in vitro; tested at: not given; reading: higher = stronger binding
Target: Sal-like protein 4, full length isoform B (SALL4, Homo sapiens, UniProt Q9UJQ4-2, residues 1-616)
Setting: 8-mer, flanks averaged, mean of replicates
Target sequence (chain): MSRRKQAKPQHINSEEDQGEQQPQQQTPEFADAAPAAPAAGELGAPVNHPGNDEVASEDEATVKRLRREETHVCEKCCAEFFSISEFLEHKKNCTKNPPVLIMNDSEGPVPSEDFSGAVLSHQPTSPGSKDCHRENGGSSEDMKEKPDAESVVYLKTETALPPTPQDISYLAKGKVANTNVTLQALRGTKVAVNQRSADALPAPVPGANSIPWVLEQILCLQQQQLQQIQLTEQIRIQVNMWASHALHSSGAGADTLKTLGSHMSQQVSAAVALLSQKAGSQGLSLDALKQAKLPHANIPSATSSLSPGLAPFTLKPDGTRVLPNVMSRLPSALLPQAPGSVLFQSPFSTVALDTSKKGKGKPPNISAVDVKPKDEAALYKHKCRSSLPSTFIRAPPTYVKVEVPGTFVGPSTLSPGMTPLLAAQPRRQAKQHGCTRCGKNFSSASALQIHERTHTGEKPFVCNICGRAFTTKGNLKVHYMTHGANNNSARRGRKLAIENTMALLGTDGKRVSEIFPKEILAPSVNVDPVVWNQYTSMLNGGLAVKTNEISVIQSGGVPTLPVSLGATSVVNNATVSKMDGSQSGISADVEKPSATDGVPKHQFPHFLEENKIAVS
With `GATCCTAC` the E-score was -0.0973.
With `CGTGAGGA` the E-score was -0.141.
`CACACTGA` gave an E-score of -0.109.
For `CAATCGTC`, the E-score was -0.0454.
`GGTGTGGA` has an E-score of -0.0732.
The E-score of `AAACTCCC` is reported as 0.0116.
The E-score of `TGCGTAAA` is reported as 0.155.
With `TAGAGGCA` the E-score was 0.0296.
The E-score of `CTAATGGC` is reported as -0.0142.
For `GGTACGTA`, the E-score was 0.0753.
With `AGCGCATG` the E-score was -0.159.
The E-score of `GAGCAAGC` is reported as -0.287.
For `AACGCCGG`, the E-score was -0.202.
`CTTCAGGA` has an E-score of -0.0612.
`AAAGGTCA` has an E-score of -0.0821.
For `AAGACCCA`, the E-score was -0.173.
With `CATACAGC` the E-score was 0.0393.
For `TCCTAAAA`, the E-score was 0.065.
The E-score of `CTTATAAA` is reported as 0.272.
For `AATGAGAT`, the E-score was 0.283.

Series 4 — method: RNA Bind-n-Seq; molecule type: RNA; sample: in vitro; tested at: not given; setting: RNA with constant flanks, ends assumed; reference: input RNA pool; reading: higher = stronger binding
Target: RING finger protein unkempt homolog, zinc fingers 1-6, GST-SBP tag (UNK, Homo sapiens, UniProt Q9C0B0, residues 30-357)
Residues (chain): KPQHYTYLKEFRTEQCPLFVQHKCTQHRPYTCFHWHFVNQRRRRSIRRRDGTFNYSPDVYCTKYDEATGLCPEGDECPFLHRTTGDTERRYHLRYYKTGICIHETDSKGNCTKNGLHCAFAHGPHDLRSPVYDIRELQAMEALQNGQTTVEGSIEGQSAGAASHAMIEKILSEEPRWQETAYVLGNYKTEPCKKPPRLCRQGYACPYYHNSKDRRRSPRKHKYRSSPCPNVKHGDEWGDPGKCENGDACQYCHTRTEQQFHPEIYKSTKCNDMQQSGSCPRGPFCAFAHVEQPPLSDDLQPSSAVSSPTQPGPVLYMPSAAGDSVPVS
With `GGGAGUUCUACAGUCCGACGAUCUCAUUGUCUUUUUUUUCCUCUUUUCUCUGUAAUUUGUUACUAAACAAAUUCCAGAAUUUGUUCCGCCGCUGAGUGUUCCUGAGUUGCCUAGUAGCAAUAAAACAAGUGAAUAGGAAAAUACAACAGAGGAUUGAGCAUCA` the bound/input enrichment was 0.574 ratio.
`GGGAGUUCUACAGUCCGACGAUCAGUUCCAGCGACAGCGACUCAUCUUGUGGCUGGACUGUCAUCAAUCAUGAGGGUUCUGAUACCGAGAUCGUGAAUUCUGCCACAGCCAGUGACAACUGUGGACUGACUCUAGAAUGUUCCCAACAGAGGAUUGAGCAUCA` gave a bound/input enrichment of 0.176 ratio.
For `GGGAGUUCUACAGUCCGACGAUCCCUCGUCCGGUGAUGACAUCAGAGGAUAGUGGCUUGUUCAGCCCUAUUCGAACCUCAGCUUUCCGUCCUCCUGGAAGCUGUACUCCUGCUGAAUGGUUUUGCCAAACAGAUACUAGUGAACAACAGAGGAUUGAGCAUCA`, the bound/input enrichment was 0.304 ratio.
`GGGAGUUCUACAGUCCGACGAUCGUUGCCAUGUCGGGGAAGCUAGUCCCCGGCAGCCUGGAUGACUGCACAGCGGUGCCCUGGUACCGCAGAAAAGAGCAGUGAGCUGGAAGGUUAGAGACCGGGCCUCUUACCCUGGAACUCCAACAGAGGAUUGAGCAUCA` has a bound/input enrichment of 1.07 ratio.
With `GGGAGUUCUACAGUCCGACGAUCGAUAUUGUGCUUGCCAUCCUUGAAUUACUAAAGUAUCAUCAGAGAGUCUUAUAUAUUGAUACCGAUAUUCAUCAUGGUGAUGGUGUUGAAGAAGCUUUUUAUACAACAGAUCGUGUAAUGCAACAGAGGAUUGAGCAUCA` the bound/input enrichment was 0.23 ratio.
`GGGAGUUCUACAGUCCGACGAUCGAUGGCCUUACUAAGUUUUUUACACCAUCACCUGAUGGUCGCAGAUCCCGAGGUGAAAUAACCGACUUUUCAAAGCACUAUCGUCCAAGGAAAAAGGUCUCUCAGAAACAGUCAUGCACUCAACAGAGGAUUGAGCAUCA` has a bound/input enrichment of 0.118 ratio.
`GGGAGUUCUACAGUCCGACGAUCGCGUGACUCGUAGGUGAGAACGCCGAGCCGCCGCCGCCGCCGAGAAGCCCUGUUAACGCUUCCGGGAGGAGAGUCUGGUGCCGACAAGAUGGCGGACGGGGAGCUGAACGUGGACAGCCUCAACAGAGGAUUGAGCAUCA` has a bound/input enrichment of 0.0893 ratio.
`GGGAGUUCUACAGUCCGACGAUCGGUGGAGAUGGAGAUGAUAUGGAAAUAUUCAUGGAGGAGAUGAGAGAAAUCAGAAGAAAACUCCGGGAGCUGCAGUUGAGGAAUUGUCUGCGUAUCCUUAUGGGGGAGCUCUCUAAUCACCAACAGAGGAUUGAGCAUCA` gave a bound/input enrichment of 0.51 ratio.
